Measured values collected from several papers.
Lines come from different studies, so protocols differ. Several values in a cell are separate wells, animals, samples, runs or records. ± gives the spread as reported.

Compound = CCCCN1C(=O)c2cccc3c(NCCCCN4CCOCC4)ccc(c23)C1=O; system = acetonitrile; quantity = absorption maximum; value = 431 nm
Compound = C=C[C@]1(C)C[C@@H](OC(=O)CSc2ccc(NC(=O)c3ccco3)cc2)[C@]2(C)[C@H](C)CC[C@]3(CCC(=O)[C@H]32)[C@@H](C)[C@@H]1O; system = M. gallisepticum-infected chickens, plasma; setting = intramuscular, 80 mg/kg single dose; quantity = absorption half-life; value = 4.5 min and 4.2 min
Compound = Cc1nc(N)nc2c1C(=O)N[C@@H](c1ccc(F)cc1-c1cccc(O[11CH3])n1)C2; assay = ex vivo biodistribution; system = mice, U87 subcutaneous xenograft, muscle; setting = 60 min post-injection, baseline, vehicle pre-treatment; quantity = tracer uptake; value = 16.1 ± 6.5 %ID
Compound = C/C(N)=N/C(=N\S(=O)(=O)c1ccc(C(F)(F)F)cc1)N1C[C@H](c2ccccc2)C(c2ccc(Cl)cc2)=N1; assay = metabolic stability; system = minipig, liver microsomes; quantity = half-life; value = 1.35 h
Compound = CCCC[C@H](OC(C)=O)c1ccccc1C(=O)O; system = beagle dog, both sexes, whole blood; setting = intravenous, 1.5 mg/kg, day 7; quantity = MRT(0-inf); value = 2.8 h
Compound = Cc1ccc(CN2C(=O)/C(=N\c3ccc(Cl)cc3Br)c3ccccc32)cc1; system = mouse, blood; setting = 200 mg/kg; quantity = MPV; value = 5.1 ± 0.08 fL
Compound = [123I]c1ccc2nc(-c3ccc(-n4ccnn4)nc3)cn2c1; system = male Wistar rat, pancreas; setting = intravenous, 4 MBq, 5 min; quantity = tracer uptake; value = 1.08 %ID/g
Compound = Cc1c(Cc2cc(Cl)cc(OC(C)C(=O)O)c2)c2ccc(C(=O)NC(C)c3ccc(C(C)(C)C)cc3)cc2n1C(C)C (stereo not drawn); assay = metabolic stability; system = mouse, liver microsomes; quantity = half-life; value = 0.762 h
Compound = COc1cccc(OC)c1-c1cc(C(=O)NC2(C(=O)O)C3CC4CC(C3)CC2C4)nn1-c1ccc(C(=O)N(C)CCOCCN(C)C(=O)[C@H](CCCCNC(=O)[C@H](CC(C)C)NC(=O)C2OC2C(=O)O)NC(=O)CN2CCN(CC(=O)[O-])CCN(CC(=O)[O-])CCN(CC(=O)[O-])CC2)cc1C(C)C.[177Lu+3] (mixture of isomers); system = mouse, HT-29 xenograft; setting = 24 h post injection, biodistribution; how to read = baseline: tumour over liver uptake; quantity = tumour-to-liver ratio; value = 3.37
Compound = Cc1nc(N)nc2c1C(=O)N[C@@H](c1ccc(F)cc1-c1cccc(OCC[18F])n1)C2; assay = ex vivo biodistribution; system = C57BL/6 mice, liver; setting = intravenous, 1 MBq, 30 min; quantity = SUV; value = 3.33 ± 0.17
Compound = CC(C)C[C@H](NC(=O)[C@H](CCCNC(=N)N)NC(=O)[C@H](Cc1ccccc1)NC(=O)[C@H](Cc1ccccc1)NC(=O)[C@@H](NC(=O)[C@H](COP(=O)(O)O)NC(=O)[C@@H](N)COP(=O)(O)O)[C@@H](C)O)C(=O)N[C@@H](Cc1ccccc1)C(=O)N[C@@H](CC(N)=O)C(=O)N[C@@H](CCCNC(=N)N)C(=O)N[C@@H](C)C(=O)N[C@@H](CCCCN)C(=O)N[C@@H](CCCNC(=N)N)C(=O)N[C@@H](Cc1c[nH]cn1)C(=O)N[C@@H](Cc1c[nH]cn1)C(=O)NCC(=O)N[C@@H](Cc1ccc(O)cc1)C(=O)N[C@@H](CCCCN)C(=O)N[C@@H](CCCNC(=N)N)C(=O)N[C@@H](CCCCN)C(=O)N[C@@H](Cc1ccccc1)C(=O)N[C@@H](Cc1c[nH]cn1)C(=O)O; assay = HPLC-UV; system = human saliva; setting = 4 h, 37 °C, with: initial 1 mg/mL; quantity = peptide concentration; value = 0.539 mg/mL
Compound = CCCCN1C(=O)c2cccc3c(NCCCN4CCOCC4)ccc(c23)C1=O; system = toluene; quantity = absorption maximum; value = 427 nm
Compound = C=CC(=O)N1CCCC(n2c(=O)c3ncccc3n(Cc3ccc(Oc4ccccc4)cc3)c2=O)C1 (stereo not drawn); system = male BALB/c mouse, plasma; setting = oral, 200 mg/kg, 1 h; quantity = concentration; value = 21100 ng/mL
Compound = CC[C@H](C)[C@H](NC(=O)[C@H](CCCCN)NC(C)=O)C(=O)N[C@@H](C)C(=O)N[C@@H](C)C(=O)N[C@@H](CC(C)C)C(=O)N[C@@H](CCCCN)C(=O)N[C@@H](CCC(=O)O)C(=O)N[C@@H](CCCCN)C(=O)N[C@H](C(=O)N[C@H]1CSCc2cccc(c2)CSC[C@@H](C(=O)N[C@@H](CCCCN)C(=O)N[C@H](C(=O)N[C@@H](C)C(=O)N[C@@H](C)C(=O)N[C@@H](CC(C)C)C(=O)N[C@@H](CCCCN)C(=O)N[C@@H](CCC(=O)O)C(=O)NCC(=O)N[C@@H](Cc2c[nH]c3ccccc23)C(N)=O)[C@@H](C)CC)NC(=O)[C@H](CCCCN)NC(=O)[C@H](CC(C)C)NC(=O)[C@H](C)NC1=O)[C@@H](C)CC; assay = circular dichroism thermal melting; system = PBS; setting = pH 7.4, single peptide 50 µM total; quantity = melting temperature; value = 20 °C
Compound = CC(C)(F)CC(NC(c1ccc(-c2ccc(S(C)(=O)=O)cc2)cc1)C(F)(F)F)C(=O)NCC#N (stereo not drawn); system = PBS; setting = 100 µM, 23 h, pH 7.45, 37 °C, with: GSH 5 mM; quantity = GSH adduct formation; value = < 1%
Compound = CN1CCC[C@]1(C)/C=C/S(=O)(=O)NC(=O)Nc1c2c(cc3c1CCC3O)CCC2 (stereo partly drawn); system = human, plasma; setting = oral, 50 mg twice daily of parent drug, metabolite of dosed drug; how to read = baseline: day 14 over day 1; quantity = AUC(0-tau) accumulation ratio; value = 1.6
Compound = [2H]C1([2H])CC[C@@H](C[C@@H](C#N)NC(=O)[C@@H]2[C@@H]3[C@H](CN2C(=O)[C@@H](NC(=O)C(F)F)C(C)(C)C)C3(C)C)C(=O)N1; system = human hepatocytes; setting = scaled to liver; quantity = intrinsic clearance; value = < 8.9 mL/min/kg
Compound = O=C(Nc1cnccc1-c1ccc([18F])cc1)c1ccnc(NC(=O)C2CC2)c1; assay = ex vivo gamma counting; system = GSK-3β transgenic mice, late-stage, blood; setting = intravenous, 120 min, mean, P-gp inhibitor pretreatment, with: tariquidar 15 mg/kg iv; quantity = SUV; value = 0.71
Compound = C=C(NC(=O)c1csc(-c2nc3c(cc2O)-c2nc(cs2)C(=O)NC(C(C)O)C(=O)NC(=C(C)OC)c2nc(cs2)C(=O)NC2c4nc(cs4)C(=O)NC(COC(=O)c4c5c6c(cccc6n4O)COC(=O)C(OC4CC(C)(O)C(N(C)C)C(C)O4)C2OC5)c2nc-3cs2)n1)C(N)=O (stereo not drawn); system = cynomolgus monkey, female, plasma; setting = intravenous infusion, 3 mg/kg single dose; quantity = MRT(0-last); value = 1.36 h
Compound = CCCCN1C(=O)c2cccc3c(NCCCCCCCCN4CCOCC4)ccc(c23)C1=O; system = DMSO; quantity = absorption maximum; value = 444 nm
Compound = O=C(O)/C=C\c1cc2ccoc2cc1O[C@@H]1O[C@H](CO)[C@@H](O)[C@H](O)[C@H]1O; assay = post-procedure stability; system = rat plasma; setting = 200 ng/mL, 1 h, room temperature; quantity = accuracy; value = 87%
Compound = CC(C(=O)O)n1nc(Cn2cc3cc(OCC[18F])c(Cl)cc3n2)c2ccccc2c1=O (racemic); system = rat, liver; setting = 30 min; quantity = tracer uptake; value = 1.79 %ID/g
Compound = CC(CCC(=O)NCC(=O)O)C1CCC2C3CCC4CC(OC5OC(C(=O)O)C(O)C(O)C5O)CCC4(C)C3CC(O)C12C (stereo not drawn); system = human, plasma; setting = baseline; quantity = mean daily plasma concentration; value = 0.108 ± 0.024 µM
Compound = O=C(Nc1cnccc1-c1ccc([18F])nc1)c1ccnc(NC(=O)C2CC2)c1; assay = PET imaging; system = FVB/NJ mice, both sexes, brain; setting = intravenous, 120 min post-injection, P-gp inhibited, with: tariquidar 15 mg/kg iv, 2 h before; quantity = median SUV; value = 0.072
Compound = CC(C)(O)c1ncc([S@](N)(=O)=NC(=O)Nc2c3c(cc4c2CCC4)CCC3)s1; assay = refers to: nervous system disorders; system = healthy human subjects; setting = oral, dose not given, 14 days, all active doses; quantity = share of subjects with TEAEs; value = 30%
Compound = CCCCN1C(=O)c2cccc3c(NCCCCCN4CCOCC4)ccc(c23)C1=O; system = toluene; quantity = absorption maximum; value = 423 nm
Compound = CC(C)=CCC1=C([O-])C(=O)c2ccccc2C1=O.CC(C)=CCC1=C([O-])C(=O)c2ccccc2C1=O.O.[Cu+2].c1ccc(-c2ccccn2)nc1; assay = cyclic voltammetry; system = dichloromethane; setting = 0.1 mM, with: 0.1 M Bu4NPF6; how to read = baseline: Ag/AgCl in saturated KOH; quantity = cathodic peak potential; value = -1.42 V

For quick reference, copied from above:
Compound = O=C(Nc1cnccc1-c1ccc([18F])cc1)c1ccnc(NC(=O)C2CC2)c1; assay = ex vivo gamma counting; system = GSK-3β transgenic mice, late-stage, blood; setting = intravenous, 120 min, mean, P-gp inhibitor pretreatment, with: tariquidar 15 mg/kg iv; quantity = SUV; value = 0.71
Compound = Cc1c(Cc2cc(Cl)cc(OC(C)C(=O)O)c2)c2ccc(C(=O)NC(C)c3ccc(C(C)(C)C)cc3)cc2n1C(C)C (stereo not drawn); assay = metabolic stability; system = mouse, liver microsomes; quantity = half-life; value = 0.762 h
Compound = CCCCN1C(=O)c2cccc3c(NCCCCCN4CCOCC4)ccc(c23)C1=O; system = toluene; quantity = absorption maximum; value = 423 nm
